Measured values from different studies.
Numbered parts are unrelated; each lists some results of a single study. Substitutions count along the parent as printed.

Set 1
Target: Sal-like protein 4, full length isoform B (SALL4, Homo sapiens, UniProt Q9UJQ4-2, residues 1-616)
Technique: universal PBM
Form: double-stranded DNA, one strand shown
Matrix: in vitro
Tested at: not given
Setting: 8-mer, flanks averaged, mean of replicates
Direction: higher = stronger binding
Target sequence (chain): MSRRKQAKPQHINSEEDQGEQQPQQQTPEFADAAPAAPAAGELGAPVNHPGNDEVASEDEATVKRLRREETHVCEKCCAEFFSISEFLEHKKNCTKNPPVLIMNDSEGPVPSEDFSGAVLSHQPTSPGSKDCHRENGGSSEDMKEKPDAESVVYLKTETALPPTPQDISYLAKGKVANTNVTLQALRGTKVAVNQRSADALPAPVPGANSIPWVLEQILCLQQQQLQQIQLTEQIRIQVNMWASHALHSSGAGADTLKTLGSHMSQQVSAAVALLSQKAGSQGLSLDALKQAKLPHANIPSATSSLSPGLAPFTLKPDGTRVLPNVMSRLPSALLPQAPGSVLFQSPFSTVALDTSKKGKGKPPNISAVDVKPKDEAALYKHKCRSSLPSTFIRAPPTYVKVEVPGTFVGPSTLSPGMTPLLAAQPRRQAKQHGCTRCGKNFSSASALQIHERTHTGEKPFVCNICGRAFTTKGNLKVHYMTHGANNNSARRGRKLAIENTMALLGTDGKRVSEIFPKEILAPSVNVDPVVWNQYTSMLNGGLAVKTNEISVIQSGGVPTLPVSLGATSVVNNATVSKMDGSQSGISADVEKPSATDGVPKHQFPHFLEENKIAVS
Sequence	E-score
GGAGCCGA	-0.349
ATGGAAAT	0.268
AGTGCACA	-0.132
CCAAAACC	-0.0183
CACCGCGA	-0.345
ATCATGGA	0.0232
GGCTTACA	-0.0123
GACCATCC	-0.0897
AGCGGACA	-0.273
AAAAACCT	0.229
GAAAAATA	0.359
CCTATCTA	0.0762
AATGCAGG	-0.0516
AGCTCGAC	-0.219
AGGTGATA	0.0516
AATCAGAT	0.144
CGCCAAGC	-0.215
ATCGGCGC	-0.272
GACACACC	-0.0998
AAAACATG	0.144

Set 2
Target: Ras GTPase-activating protein-binding protein 1, RRM domain (G3BP1, Homo sapiens, UniProt Q13283)
Sequence of UniProt Q13283 (whole entry, looked up): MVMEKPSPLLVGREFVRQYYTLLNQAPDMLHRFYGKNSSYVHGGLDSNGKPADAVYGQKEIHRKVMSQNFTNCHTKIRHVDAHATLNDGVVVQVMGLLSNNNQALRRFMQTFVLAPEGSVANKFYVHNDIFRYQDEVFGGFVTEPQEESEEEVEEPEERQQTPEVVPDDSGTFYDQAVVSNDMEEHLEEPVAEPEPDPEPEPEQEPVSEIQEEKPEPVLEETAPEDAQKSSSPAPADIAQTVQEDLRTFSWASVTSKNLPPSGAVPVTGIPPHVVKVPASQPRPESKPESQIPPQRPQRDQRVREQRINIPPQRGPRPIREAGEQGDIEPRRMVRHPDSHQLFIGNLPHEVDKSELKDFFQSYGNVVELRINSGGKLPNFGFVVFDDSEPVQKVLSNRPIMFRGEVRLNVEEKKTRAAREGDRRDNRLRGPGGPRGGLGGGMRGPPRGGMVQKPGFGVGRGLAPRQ
Technique: RNA Bind-n-Seq
Form: RNA
Matrix: in vitro
Tested at: 1 µM
Setting: whole 134-nt RNA, ends assumed
Added: 150 mM KCl
Relative to: input library
Direction: higher = stronger binding
Shared flanks, not repeated: GGGAGUUCUACAGUCCGACGAUC … UGGAAUUCUCGGGUGUCAAGG
Sequence	log2 enrichment
UUUAAUGUCUGCGGCACAAUGCCUGUCUGUGGGACCAUCCUGGGAAAACCUGCUUCUGGCUGUGAGGCAGAAACCCAAACUGAAGAGCUC	0.179
AACAGACAACACGCACCCACACAGACACAGAGGGAAGGGGUUGGGAUGGGGACAGGGUGCACAGCAGGGCGGGGUAGGACCCCAGCCCCU	-0.184
UCCUCAAGUCCUGUGCUACACAUCGUAUGUACCGAAUCGGGAGGAGGGGAGGAAAGUAUUAUGUUACGCCGUUCGGAUCUGCACUUCCAG	-0.201
UCAAGUCCUGUGCUACACAUCGUAUGUACCGAAUCGGUUUUUGGAGGUUUUUGGAAAGUAUUAUGUUACGCCGUUCGGAUCUGCACUUCC	-0.191
UCAAGUCCUGUGCUACACAUCGUAUGUACCGAAUCGGUUUGGAAAAAGGUUUGGAAAGUAUUAUGUUACGCCGUUCGGAUCUGCACUUCC	-0.224
AUUAUAGACUUGAUCAAAACACAGGAAAAGGCAACUCCCAGGAACUUUCCGCCACGAUUCCAGGAUGGAUAUUACAGCUGACAGCUUUUC	-0.0847
CUGUGCUACACAUCGUAUGUACCGAAUCGGGUUUUUUUGGUUUUUUUGGGGUUUUUUUGGGAAAGUAUUAUGUUACGCCGUUCGGAUCUG	-0.144
AGUCCUGUGCUACACAUCGUAUGUACCGAAUCGGGAAAGGGUUUUUUUGGGUUUGGGAAAGUAUUAUGUUACGCCGUUCGGAUCUGCACU	0.282
AGUCCUGUGCUACACAUCGUAUGUACCGAAUCGGGCCCCGGGCCCCGGGCCCCGGGGAAAGUAUUAUGUUACGCCGUUCGGAUCUGCACU	-1.01
GUCCUGUGCUACACAUCGUAUGUACCGAAUCGGGAAAAAGGGAAAAAGGGAAAAAGGGAAAGUAUUAUGUUACGCCGUUCGGAUCUGCAC	0.276
GUCCUGUGCUACACAUCGUAUGUACCGAAUCGGGGAAAAAGGGAAAAAGGAAAAAGGGGAAAGUAUUAUGUUACGCCGUUCGGAUCUGCA	0.0911
GCAGGAAGUAAAAACAAAUGGAAAUGCUUCGGAUAGUGGCAGGGGUGGGGGUUGAUAAGGAAAGGGUGGGAUGGGAGUGGGUAAAGAGUU	0.705
CCUGUGCUACACAUCGUAUGUACCGAAUCGGAAAAAAAGGAAAAAAAGGGGAAAAAAAGGGAAAGUAUUAUGUUACGCCGUUCGGAUCUG	-0.0266
AAGUCCUGUGCUACACAUCGUAUGUACCGAAUCGGGUUUUUGGGAAAGGGAAAGGGAAAGUAUUAUGUUACGCCGUUCGGAUCUGCACUU	0.481

Set 3
Target: CEP164, C-terminal peptide (human)
Technique: DHFR complementation, deep sequencing
Matrix: yeast
Setting: single substitutions, model-inferred values
Relative to: wild type
Direction: higher = weaker binding
Starting sequence: PDZK1, PDZ domain 2 (human); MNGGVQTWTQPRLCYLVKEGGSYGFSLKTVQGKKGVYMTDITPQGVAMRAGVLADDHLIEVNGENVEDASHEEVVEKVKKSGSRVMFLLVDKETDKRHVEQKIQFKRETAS; partner HNRVKVYRF
Substitution	binding free energy change
S22D	0.725 kcal/mol
Q104M	-0.0718 kcal/mol
A47I	0.813 kcal/mol
R107C	-0.109 kcal/mol
S70R	0.0824 kcal/mol
R107A	-0.229 kcal/mol
M86I	0.0295 kcal/mol
M38D	2.3 kcal/mol
E72V	0.402 kcal/mol
Q104L	-0.121 kcal/mol
Q31F	0.111 kcal/mol
P11F	0.314 kcal/mol
P43I	0.373 kcal/mol
G51N	0.747 kcal/mol

Set 4
Target: Interferon regulatory factor 3, full length, phosphomimetic (IRF3, Homo sapiens, UniProt Q14653, residues 1-427, S386D/S396D/S398D/S402D/T404D/S405D)
Sequence of UniProt Q14653 (whole entry, unmodified, looked up): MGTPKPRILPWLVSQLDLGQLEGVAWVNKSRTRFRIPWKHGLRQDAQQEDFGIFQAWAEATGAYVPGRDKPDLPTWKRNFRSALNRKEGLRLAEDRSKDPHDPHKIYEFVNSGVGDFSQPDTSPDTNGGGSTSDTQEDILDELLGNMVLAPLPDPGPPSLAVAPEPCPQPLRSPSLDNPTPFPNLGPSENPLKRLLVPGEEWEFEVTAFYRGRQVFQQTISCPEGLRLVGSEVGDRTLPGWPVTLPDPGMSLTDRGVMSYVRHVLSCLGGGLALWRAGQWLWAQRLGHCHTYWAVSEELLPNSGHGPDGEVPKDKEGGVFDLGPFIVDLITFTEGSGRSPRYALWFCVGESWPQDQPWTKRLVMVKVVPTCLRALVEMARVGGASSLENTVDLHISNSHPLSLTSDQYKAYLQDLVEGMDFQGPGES
Technique: protein-binding microarray
Form: double-stranded DNA, one strand shown
Matrix: in vitro
Tested at: 2540 nM top
Setting: 60-bp whole probe
Added: salmon DNA 0.4 mg/ml
Relative to: random background probes
Direction: higher = stronger binding
Shared flanks, not repeated: GCCTAGCAC … GTCTTGATTCGCTTGACGCTGCTG
Sequence	fitted relative affinity [z-score]
GACGATCTCAGTATCGACACGTGCTAG	0.859
TTAGATATCAGACTGGATCAGTGCTAG	0.0438
GACGATATCTGGTTTCGAGACGTGCTA	1.61
GACGGTCTCGGTATCGGGAAGTGCTAG	1.75
TTAGATATCGGGTTTCGACTAGTGCTA	0.801
CTAGGTTTCGGGTTTCGGTTAGTGCTA	5.98
ACAGCAAGCAGGGCCAGCCCGTGCTAG	-1.21
TTAGGTATAGACTATCGGTTAGTGCTA	-0.374
GACGGTATCCTTTTCCTTACGTGCTAG	8.08
TTAGGTTTCCTTATCCTCTAGTGCTAG	8.46
GACGATCTCAGTTTCTAGACGTGCTAG	1.63
TCAACCCTCCCTCTGTAACTGTGCTAG	-0.143
TTAGAACCGGGGTTTCGATTAGTGCTA	1.41
TTAGGTCTCCTTATCCGTTAGTGCTAG	2.73
GACAGACTGGACTATCGGGACGTGCTA	-0.362
GACGGTTTCGGTTTCGAGACGTGCTAG	9.98
GACGGACTGGGTGTCGGGACGTGCTAG	-0.335
GACGGTATCCATATCCTGACGTGCTAG	3.66
GACGGTTTCATTTTCCTGACGTGCTAG	6.2
TTAGGTTCCCTTTTCCTTGAGTGCTAG	7.3
GACGATATCAGTTTCGAGACGTGCTAG	3.4
GATGAACTGAGTTTCGAGACGTGCTAG	1.11
TTTGATTTCAGTTCCGATTAGTGCTAG	3.87
TTAGATCTGAGTCTCGATTAGTGCTAG	-0.00241
TTAGGTATCGGAATCGGTTAGTGCTAG	4.17

Set 5
Target: RNA binding protein fox-1 homolog 2, RRM domain, GST-SBP tag (RBFOX2, Homo sapiens, UniProt O43251-10, residues 100-194)
Technique: RNA Bind-n-Seq
Form: RNA
Matrix: in vitro
Tested at: 365 nM
Setting: natural RNA segment, single round, ends assumed
Relative to: no-protein control
Direction: higher = stronger binding
Shared flanks, not repeated: GGGAGUUCUACAGUCCGACGAUC … UGGAAUUCUCGGGUGCCAA
Residues (chain): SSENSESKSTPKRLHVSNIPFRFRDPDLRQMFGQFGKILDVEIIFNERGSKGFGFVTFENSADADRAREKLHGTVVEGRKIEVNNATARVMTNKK
Sequence	RBNS enrichment (R)
CAGUGUGGCUUGCUGCCAGGCUCAGGCCAGGUCUGGACAGCUCUCACUCUCCUCAAGCCAGGACUACCGACCAGCCGGCUAUGGGCACAUUACUCUGUGGCUGCUGGAUU	0.23
ACACAGAUUUGAGUCAGAACUGGAAAGUGUCCCCCACCCCCACCACCCUCGAGCGGGGUUCCCCUCAUUGUACAGAUGGGGCAGGACCCAGCACGCUGCUGGCAGAGAUG	0.367
AUAGGACCGUACUCCUGGACACCAUUUCCACAUGUGGAUUUCUGGUUGCACCAAGAUGACAAGCAAAUACUAGAGAAUCUUUCCACUUCGCCUCUGGCUGAGCCACCCCA	0.727
GACUAACUCUACUGUGAAGUCCCACCACAUUCCAGGUUGGAAUUUUAGAUUCAGGGUGGAUUUUCCCUGCCGUGGAAGAACACAGGCAUCUCCCUAGCUUUCUCACGCUA	0.724
UACAUAGCAGCGGUUCCUGUCAUGUGUUCAUGUCAGAAUAUUUUUGGUUUUAAACUUUCUUAUUGCCUUUGGCUGUUGAUUAGUACAGUACAAGUGCGAUUUCAAAAAGA	0.347
UUACAAAUAUUACAAAGUAAAAUCUAGCGUCAUAUCCAAUUCUUCCAAAUGACCUCUAUCAGCUGUUGAGUCAGACAGAUCCACGGACAUGUCUACCAAAAAAUGAUGUG	0.269
CCUGGUGCCUGGCUCUUUCGUCACCCUUGGACAAGACAAACCAAGUCGGAACAGCAGAUAACAAUGCAGCAAGGCCCUGCUGCCCAAUCUCCAUCUGUCAACAGGGGCGU	0.35
GCCAUGUGCUUUGCAUCUUUCUUAUUUGAUUCUUUUAAAGAAGUGUAGGGAGGAAAACCUGUCAUUUUUGUUGUUUUGCCAGAAUGAAUGACGAUAACUCCUCCUGUUAA	2.2
GAAGGACCGGCUUUAUCUCAUGAUGCCUUUCUGAGACUUGACCGUUAUGAGCUGAACAUAAAAAGUUUUGGCUGGCUUAUGUGAUUGAGGCCAUUAACACUGAUAAGUAU	0.498
UGGAGUUCAGGUUUAUUUUCUAUUUAAAUGAACUAAAAGCCAGCAUCCUGCCGGGCGUGGUGGCUCACGCCCAUAAUCCAGCACUUUGGGAAGCCGAGGCGGGCAGAUCA	0.41
CAAAUCCUUUGGCCUGAGAACUAAUAUGUUAAUUGCCUUAAAUAAAUUAAUAGAAAUCUAGUCCGUUAAAAAGGGAUGUGUUUCCUGCACUCCCCCGGGGGCUGUGGGGA	0.458
CUGCCCCUCGAGUCGAUGGUGUCCCGCAUCUACUCAUGUGAACUGGCCUUGGCGAGGGCUGGUCUGUGCAUAGAAGGGAUAGUGGCCACACUGCAGCUGAGGCCCCAGGU	0.586

A few entries again (set 5):
Sequence	RBNS enrichment (R)
ACACAGAUUUGAGUCAGAACUGGAAAGUGUCCCCCACCCCCACCACCCUCGAGCGGGGUUCCCCUCAUUGUACAGAUGGGGCAGGACCCAGCACGCUGCUGGCAGAGAUG	0.367
AUAGGACCGUACUCCUGGACACCAUUUCCACAUGUGGAUUUCUGGUUGCACCAAGAUGACAAGCAAAUACUAGAGAAUCUUUCCACUUCGCCUCUGGCUGAGCCACCCCA	0.727
GACUAACUCUACUGUGAAGUCCCACCACAUUCCAGGUUGGAAUUUUAGAUUCAGGGUGGAUUUUCCCUGCCGUGGAAGAACACAGGCAUCUCCCUAGCUUUCUCACGCUA	0.724
UACAUAGCAGCGGUUCCUGUCAUGUGUUCAUGUCAGAAUAUUUUUGGUUUUAAACUUUCUUAUUGCCUUUGGCUGUUGAUUAGUACAGUACAAGUGCGAUUUCAAAAAGA	0.347
UUACAAAUAUUACAAAGUAAAAUCUAGCGUCAUAUCCAAUUCUUCCAAAUGACCUCUAUCAGCUGUUGAGUCAGACAGAUCCACGGACAUGUCUACCAAAAAAUGAUGUG	0.269
CCUGGUGCCUGGCUCUUUCGUCACCCUUGGACAAGACAAACCAAGUCGGAACAGCAGAUAACAAUGCAGCAAGGCCCUGCUGCCCAAUCUCCAUCUGUCAACAGGGGCGU	0.35
GCCAUGUGCUUUGCAUCUUUCUUAUUUGAUUCUUUUAAAGAAGUGUAGGGAGGAAAACCUGUCAUUUUUGUUGUUUUGCCAGAAUGAAUGACGAUAACUCCUCCUGUUAA	2.2
